# Results from different studies.
# A part holds a random share of what one study measured.

# Study 1
# Target: Histone acetyltransferase KAT6A, both winged helices, GST fusion (KAT6A, Homo sapiens, UniProt Q92794, residues 1-181)
# Technique: protein binding microarray
# Form: double-stranded DNA, one strand shown
# Matrix: in vitro
# Tested at: not given
# Setting: 8-mer, flanks averaged, mean of 2 arrays, mostly near background
# Baseline: not given
# Reading: higher = stronger binding
# Target sequence (chain): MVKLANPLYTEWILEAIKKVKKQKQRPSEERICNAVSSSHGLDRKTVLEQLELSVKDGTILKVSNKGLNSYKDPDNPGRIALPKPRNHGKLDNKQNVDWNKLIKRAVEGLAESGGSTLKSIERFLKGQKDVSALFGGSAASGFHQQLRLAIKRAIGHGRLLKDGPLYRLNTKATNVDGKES
Strand,E-score
GCCAGGGC,-0.0306
CGGTTTGC,0.187
CAAAAATC,-0.0555
GGTGTTAC,-0.0659
CTATAGAG,-0.0988
CAAGTAAA,-0.0284
GATTTGAC,0.0995
GCGGACCA,0.25
AAGCGAAC,0.0983
ATGTTAAC,0.0794
CTTCGGAC,0.122
CAACATTC,-0.0852
AGGTATGA,-0.129
CCGCCTTC,0.0697
GGCTAAGA,-0.0683
GACAGTGA,-0.0599
AAGAAATT,0.00724
CGACGCTC,0.216
CTTTATTA,-0.0854
CACTCTAC,-0.16
AGTACATC,-0.058
CGCGATCC,0.204
GGCCTCCC,-0.0689

# Study 2
# Target: RING finger protein unkempt homolog, zinc fingers 1-6, SBP tag (UNK, Homo sapiens, UniProt Q9C0B0, residues 30-357)
# Sequence of UniProt Q9C0B0 (30-357, looked up): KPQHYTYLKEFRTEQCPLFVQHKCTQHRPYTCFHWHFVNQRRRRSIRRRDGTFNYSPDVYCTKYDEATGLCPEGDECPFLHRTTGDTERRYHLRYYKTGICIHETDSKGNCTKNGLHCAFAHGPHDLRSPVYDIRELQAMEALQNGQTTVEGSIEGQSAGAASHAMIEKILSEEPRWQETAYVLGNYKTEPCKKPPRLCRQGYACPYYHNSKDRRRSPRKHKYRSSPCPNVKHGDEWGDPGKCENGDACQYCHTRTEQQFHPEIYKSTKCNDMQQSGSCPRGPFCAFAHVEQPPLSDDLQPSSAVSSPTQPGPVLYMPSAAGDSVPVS
# Technique: RNA Bind-n-Seq
# Form: RNA
# Matrix: in vitro
# Tested at: 100 nM
# Setting: RNA with constant flanks, vertebrate orthologous sites, ends assumed
# Baseline: input RNA pool
# Reading: higher = stronger binding
Strand,bound/input enrichment [ratio]
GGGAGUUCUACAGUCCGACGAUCAUCCCUCAGUGACAGUAUGCCGUCUGUAGCAGAUUCCCACUCUAGUCAUUUUUCUGAGUUUAGUUGUUCUGACCUAGAAAGCAUGAAAACUUCUUGUAGUCAUGGUUCCAGUGACUAUCACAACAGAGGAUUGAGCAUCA,1.69
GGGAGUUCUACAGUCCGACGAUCGCUGUUAAUGCACUGUAUUCCAGGCAUCGUCUGAUUUUUAGUGUAAUCUAGGAGAUUUUAUAAUUUUAUUUUAAUGAAGUAUGGAUUGAUGCAAAGUUGUUAGCAGUCUGUAGUCUUUUACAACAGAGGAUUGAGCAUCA,1.1
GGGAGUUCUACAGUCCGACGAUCGCAAAGGAAAAGCAGCCCUUCUCCCAGCCCCUUUUUCACUAGGAGAUACAAACGUUACCAUAGAAGAGCAAUUAAACUCAAUAAAUUUAUCUUUUCAGGAUGAUCCAGACUCCAGUACCACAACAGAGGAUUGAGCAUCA,1.4
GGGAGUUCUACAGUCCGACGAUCGCAAUGAAAAAGCAGCCCUUCUCCCAGCCCCCUUUUCACUAGGAGAUACAAACAUUACCAUAGAAGAGCAAUUAAACUCAAUAAAUUUAUCUUUUCAGGAUGAUCCAGACUCCAGUACCACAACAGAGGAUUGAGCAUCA,2.04
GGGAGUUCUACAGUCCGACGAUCGUGCAAGGAAAUUAUCCCAACUAGUGAAUUUAUUAACAGUAAGUUGACAGCAAAAGCAAAUAGGCAGCUUCAGGAUCCUUUAGUAAUCAUGACGGGAAACAUCCCAACAUGGCUUACUGACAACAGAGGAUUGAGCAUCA,0.853
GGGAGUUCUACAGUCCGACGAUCCCCUCUGAACCCCAUAUCUUCUGUUUCAUAGUGCAGAAGUAUUCUUUUCAAUUGUAUUAUUAGUGGACUUGACUAAUUCUAGGAAAACUUUGAGUACAGAUACUGUGAGCUUACAUGGAACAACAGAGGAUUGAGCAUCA,1.14
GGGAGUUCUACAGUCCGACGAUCUAUAAUUAUGAAAAUCUAAAGGAUUUUUAAUGUUUAAUUUCCCCCAGCAUAUAUAUUAAGACCUCUUUUUUCCAGGCAGAUCAUUCAGAGUGUGCGAGUGUGUGUGCACAUGUUACAAAGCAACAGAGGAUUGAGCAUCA,0.891
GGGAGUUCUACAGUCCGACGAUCCUAGUCUUCCUCUUAGGGUCAGCCUCAAAGCUAUAGGAUUUAUGGAUUUAUGACAAUUGUAUAUCUUUUUGGGUUGAGUUUAAUAUUUUUUUAUUAGCCUGUAAAUAAAGAUGGUGUCUUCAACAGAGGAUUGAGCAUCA,0.419
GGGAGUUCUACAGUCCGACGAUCACACUCUUCUACUUAAACUGCUAUUUUCAAACAAUAGAAACCUAUUUUUUUUUUUUACAGUUUAGUAUCUGGUUUCUACAUGGAAGACUAAACCCCGUGCUUAUAGCUAAAUGUGGUCUUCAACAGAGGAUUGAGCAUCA,0.462
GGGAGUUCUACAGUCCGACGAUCCCCGCCUCCUGCGGGGGUGUGACCGAGGCCAAAGCAUCCACCGUUGCUGCGAGGGGUCCACGGUAUUUUUUUUUUUGCUGCCUCAGUCCCCAGAGCCUUCAAGCAACAGUGGCAGUAGAUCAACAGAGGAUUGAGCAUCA,0.382
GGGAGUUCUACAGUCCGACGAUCCUGUUGUGUGAAACAUGUCUACCUGGGAAAGUAACACACUAUAAAUACUGUUAAACAAUUUAGCUAUAUUAUUUUAAAAUAUUGUAUGUCUAGCGGUUAAAAUGAAUUUCAGAGUAAAAGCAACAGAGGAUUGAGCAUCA,0.54

# Study 3
# Target: RNA binding protein fox-1 homolog 2, RRM domain, GST-SBP tag (RBFOX2, Homo sapiens, UniProt O43251-10, residues 100-194)
# Technique: RNA Bind-n-Seq
# Form: RNA
# Matrix: in vitro
# Tested at: 365 nM
# Setting: natural RNA segment, single round, ends assumed
# Baseline: no-protein control
# Reading: higher = stronger binding
# Target sequence (chain): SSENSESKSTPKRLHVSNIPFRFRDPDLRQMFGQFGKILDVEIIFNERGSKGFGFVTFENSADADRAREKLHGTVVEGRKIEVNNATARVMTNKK
Strand,RBNS enrichment (R)
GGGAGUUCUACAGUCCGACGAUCGAACUUUGGUAGUGAGUAUUUUUUUUAUAUAUAUACAUAUAUAUGUACUAUCUAUAUAUAUAUCUCAAGCAUCUUUCAGGUCUUUGUGUGUGGCUUUCUUAAAGCCCUGUUGGAAUUCUCGGGUGCCAA,0.765
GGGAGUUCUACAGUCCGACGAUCGCCUGACAUUUGGAGUGUUCCCCUUCCACUGAGGGCAGUCGAUAGAGCUGUAUUAAGCCACUUAAAAUGUUCACUUUUGACAAAGGCAAGCACUUGUGGGUUUUUGUUUUUGGAAUUCUCGGGUGCCAA,0.544
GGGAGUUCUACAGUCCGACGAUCUUCUGAUGAAGUGAUUGUAGUAGGUGUCUGUAGCUAGUCUUCAAGACCACACCUGGAAGAGUUUCUGGGCUGGCUUUAAGUCCUGUUUGAAAAAGCAACCCAGUCAGCUGUGGAAUUCUCGGGUGCCAA,0.345
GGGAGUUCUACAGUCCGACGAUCGGCCUGCUGGGCUCUCCACCUCAGCCUUGGAUAAUGCUGUUGCCUCAUCUAUAACAUGCAUUUGUCUUUGUAAUGUCACCACCUUCCCAGCUCUCCCUCUGGCCCUGCCUUGGAAUUCUCGGGUGCCAA,0.711
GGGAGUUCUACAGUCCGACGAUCGGCCCUUCACGGUCCUGGAGGGAGGUGAGGCUGGCCUUGGAAGGCGUGCCCUGGAGAGGUCUUGGGUGAAAACUUGACCUUGAAGAAACCAAUCACAAAAGCGGCGUUGGUGGAAUUCUCGGGUGCCAA,0.356
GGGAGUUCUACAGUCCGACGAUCUGACGGUAAUUAGAAGAAGCAGAGGCUCACACAUCUCCUGGCACGGUCUUAUCUCCCUCGUGUGUUGAACUUGCUGUCCGUCCAUGCACCCUACGAAGGCCAUGCUGUGCUGGAAUUCUCGGGUGCCAA,0.431
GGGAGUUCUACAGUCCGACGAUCUCCAGGGCAACUCUAGCAUCAGAGCAAAAGCCUUGGGUUUCUCGCAUUCAGUGGCCUAUCUCCAGAUUGUCUGAUUUCUGAAUGUAAAGUUGUUGUGUUUUUUUUUAAAUUGGAAUUCUCGGGUGCCAA,2.1
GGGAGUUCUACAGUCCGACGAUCAUUAUCGCGAGUGGUUGACCUUACACUUACUCCUUAAAUAGCAGUGAGUAAUGCAUUUGAGCUGUCCCAGGCUCUGUCUCCUCAGCUCAUUUCCUACUCUUUUUCUCUAUUGGAAUUCUCGGGUGCCAA,0.228
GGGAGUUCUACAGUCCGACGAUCCUCCCCCUGGAUGAGACCCUGCCUUUUUUCCCUACCCUCCUGUGAGACUGUCCUGUCCAGGAAAUCUGGGGGAAGAGGAGUUGCAAUCAGGCCCCAACCCUGUAAUAGGCUGGAAUUCUCGGGUGCCAA,0.399
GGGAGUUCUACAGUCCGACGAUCAACAAUGGAACCCAAACAGAAGGAAGAAAGCCUUGAUACCAAAAUUGGGAGUGAGGAUGUGUCCAUUUGGACCAAACACUUUGUUUUGUUUUAUUUAGAUUUUGUUUUUCUGGAAUUCUCGGGUGCCAA,0.299
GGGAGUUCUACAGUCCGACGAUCUGAUUAUAGCUAUGAGCCUUAUGGUAGACACUAUGUACCCUCUGCGGUGUAAUUGCAUUAUAGCUAUGUGCCUUGUGGUAAGCACUAUGUACUCUCUGCAUUGUCCAAAUUGGAAUUCUCGGGUGCCAA,2.91
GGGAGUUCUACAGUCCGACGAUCUUGAAAUGAAAACUAAGAGUUGUAAAACAAAGUAUUUUCUUGGGAAUAUUACUUUAACAUUCAGAUGGAUCAUAACUAAUUCGACUAGGGUGUUUUUCCUGAGUAGGAGUUGGAAUUCUCGGGUGCCAA,0.362

# Study 4
# Target: Prothrombin, mature alpha-thrombin (F2, Homo sapiens, UniProt P00734)
# Technique: aptamer microarray, sandwich
# Form: DNA with 2'F-ANA
# Matrix: in vitro
# Tested at: 200 nM
# Setting: whole 15-mer aptamer, many near background
# Together with: Cy3 exosite-II aptamer, 400 nM
# Reading: higher = stronger binding
# Strand: GGTTGGTGTGGTTGG
Modification,mean fluorescence intensity [a.u.]
2'F-ANA at 2 3 5 6 7 8 9 10 12 13 15,71.7
2'F-ANA at 1 4 5 6 7 8 10 14 15,51.2
2'F-ANA at 2 5 6 12 14 15,46
2'F-ANA at 1 4 10 11 13 15,49.3
2'F-ANA at 1 2 3 6 8 9 14 15,175
2'F-ANA at 2 3 4 5 6 9 10 11 12 13 14 15,61.7
2'F-ANA at 1 2 3 4 5 7 9 13 14,44.8
2'F-ANA at 6 8 10 12 14 15,95.8
2'F-ANA at 5 6 7 8 9 10,50.1
2'F-ANA at 1 2 3 4 8 9 10 12 13 15,70.2
2'F-ANA at 1 7 8 9 10 11 13 15,54.1
2'F-ANA at 2 4 5 6 8 10 12 13 14 15,52.4
2'F-ANA at 1 3 7 8 10 11 12,108
2'F-ANA at 3 4 5 6 12,218
2'F-ANA at 1 3 4 5 7 10 12 15,57.2
2'F-ANA at 2 3 4 5 6 7 13,58.3
2'F-ANA at 1 2 5 6 7 8 9 11 13,52.3
2'F-ANA at 2 3 5 6 15,92
2'F-ANA at 1 3 4 8 9 10 11 12 14,52.9
2'F-ANA at 1 2 3 6 7 8 9 11 12 14 15,81
2'F-ANA at 1 2 4 5 6 7 8 11 12 13 14,104
2'F-ANA at 3 4 5 7 8 11 12 13 14 15,57.7
2'F-ANA at 1 3 4 6 10 12 13 15,68.5
2'F-ANA at 1 2 3 5 7 8 11 12 13 14 15,49.2
2'F-ANA at 3 5 8 9 10 11 15,57.5
